Experimental data gathered from unrelated publications.
Every numbered part comes from another study and shows a few of its results, in no order.

Set 1
Target: RING finger protein unkempt homolog, zinc fingers 1-6, GST-SBP tag (UNK, Homo sapiens, UniProt Q9C0B0, residues 30-357)
Technique: RNA Bind-n-Seq
Molecule type: RNA
Sample: in vitro
Concentration: not given
Setting: RNA with constant flanks, ends assumed
Relative to: input RNA pool
Reading: higher = stronger binding
Quantity: bound/input enrichment
All sequences stand within: GGGAGUUCUACAGUCCGACGAUC … CAACAGAGGAUUGAGCAUCA
Residues (chain): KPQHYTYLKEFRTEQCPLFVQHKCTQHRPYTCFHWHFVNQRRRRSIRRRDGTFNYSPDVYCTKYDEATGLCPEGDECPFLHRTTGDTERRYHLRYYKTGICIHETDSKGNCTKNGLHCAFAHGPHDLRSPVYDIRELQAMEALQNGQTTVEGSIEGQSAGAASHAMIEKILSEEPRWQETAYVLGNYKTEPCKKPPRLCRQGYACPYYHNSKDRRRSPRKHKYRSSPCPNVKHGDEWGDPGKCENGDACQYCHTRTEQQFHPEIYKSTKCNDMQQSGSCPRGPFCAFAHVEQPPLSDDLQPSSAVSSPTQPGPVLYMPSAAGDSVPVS
AGUAAACCUGGCAGCUAUAGAAUACACUAUGUGCAUUUAUAAUAGCUAUUUUAUAUAUUGCCGUGUUCAACAUUUUUAAAUUAAAUGUUUUACAUUCACAAGUGGUGGGGAGUCUUGUCA: 0.741 ratio
GGAGACUCAACAGCAAGAAUAUGGAAUCUUAGUGAGAACAGCACCAGUGGCUCUACACAGUCCGUACUUAGACAUUGUAUACGAGAAGGAGGGCAAGAUGUUCCAAGCAACAAGGAUGUC: 0.346 ratio
AAAAUCUCUGAUGACCUGAUGCAGAAGAUCAGCACUCAGAACCGCCGAGCCCUGGACCUCGCCGCUGCCAAGUGUUACUAUUAUCACGCCCGGGUCUAUGAGUUCCUGGACAAGCUGGAU: 0.142 ratio
CGGUCUCUUCCAUCUCCUUCCUCUGCUCACUUGGCUGCUUUAAGUGUUGCAGUUGUUGAGUCCGCAAAAGAACAAGGAAUAACAGAUGAUGACCUCAGAAUCCGCCAGGACAUUGUGGAG: 0.0877 ratio
UUUGUUUAUUUGCUAGUGAGUUUCUUUGUAACGUUGAUUUUAUUAAAUGAUAAUAUUUGGUCCGUAUGUCCUAUGUUAAUAAAAAUGAACAAAAUUAAUUUUGCUAUGUUCAGGUGUCUU: 0.733 ratio
CCUGAAAAUGUCUAUAGUGUGCACUUCGAAAAAGAACAUAAAGCUGAGAAAGUCCCAGCAGCCGCCAACUACAUUAUGAAAAUACACAAUUUUACUAGCAAAUGCCUCUACUGUAAUCGC: 5.53 ratio
GGACAGACGUGUGGAAAACAUAAAUGUCCAAGAAACACUUUUGUCUUAAUGGUCUGUGGAAACCGGUUCACUCCUUGAAAUUAAGGUCUAAAAGGUGUUUUGUGGUUUCUGUAUUUCUUC: 0.182 ratio
UGUACAACAUGUCUUUGUAAUUUAUAGAAACAAGUCUAGGUGUUGAUACCUUGUGGUCUAACCGAUGUGGAUACCAUUCAUUUUACUUGAAAUUUUGUUGUCUACUUUAAGUGUAUUUGC: 0.282 ratio
CACCUACUAACCUCACUGUCCUACAAAGUUCGAAUGCAAGCACUGAAAUGUUUCUCAGUUUCCGCUUUUGAAAACCCCCAGGUAUCGAUGACCCUGGUAAAUGUUUUGGUUGAUGGAGAA: 0.233 ratio
UGUACCCAGAUUCUAAGAACCUGGAGAAGGAUUAGCAGUUCUUAGUAAGUUUACUGUGUACCGGAACGGUUUGUAUUUCAUUACAGCUAUUCAUCUUUUCUACAUUAAAAAUAUUUUUCU: 1.83 ratio
CCAUUAAAACAGCAAAUAAAACCCAGUGAAGCAUUUUUUAAAGACUAACAGCUUAAUUAAUUCCGAUAUACUUUAAGAGAAAAACUAUUUUAUCCUUCAUGUGAAUAAUGAAUAACAGUA: 2.42 ratio

Set 2
Target: RNA binding protein fox-1 homolog 2, RRM domain, GST-SBP tag (RBFOX2, Homo sapiens, UniProt O43251-10, residues 100-194)
Technique: RNA Bind-n-Seq
Molecule type: RNA
Sample: in vitro
Concentration: 365 nM
Setting: natural RNA segment, single round, ends assumed
Relative to: no-protein control
Reading: higher = stronger binding
Quantity: RBNS enrichment (R)
All sequences stand within: GGGAGUUCUACAGUCCGACGAUC … UGGAAUUCUCGGGUGCCAA
Residues (chain): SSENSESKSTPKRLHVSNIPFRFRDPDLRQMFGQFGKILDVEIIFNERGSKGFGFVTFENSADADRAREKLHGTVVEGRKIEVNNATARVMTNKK
AUACAAAUGUUUUAGUAAAAAAGAGAAUUGUAGAUAAUACUGUCUAGGAAAAUAAGAAUUAGGUUUCUUUGAAGAAGGAAUCUUUUAUAACACCUUAACAGUCACCACUG: 0.294
GGAUCCCUGUAGCCAAAACAGUAUAUGAUCCAGCUGCAGAGAGCAGACUGCUCUCAGCUUGCACAGCACCUUAGGCGAGGGAAGAAUAUACGGAUAGGGAAUGGGGUGGA: 1.13
GUCCCAAAGAUCAAGUUGUCUGAAGGAGCCAAAGUGUGAAUGUGGGUGUCGGCUGCGGCAUUAAAUUCAUCAUCUCAACCCAGAGUGUCUGGUCUCCCUGCUCUUUCUGC: 0.39
UCAGGUAGUGCACAUAUUGGCAAUAGAGGUCCUGAAUUGUUUUUCUAAGACUGAUCUGAGAGCCAUUGGGCCAUCAAGCCUUUAUAUAUCUGCUUCUAAAAUUGCCCCAC: 0.774
GCCACCUCUGCCCCCCAGCACCUCAAACUUGCAUGGCUGGGCUGUGGCCUCUGCGGCCAGGAAGCCUGACACUAGGCACCCCCCAGGCGAGAGCUAGUGGGGUGCAGAGG: 1.7
AUAAACUCUUGAAGUGGUCUUAAGGUUAGCAAAUAAUUGUCUGUAUUAAACAUGGCGUUAUUUAAGUAGUCCUGCUGCAAGAAAGGCACUUCAGUGAAUAUGUGACUAGU: 1.33
CUGGGAUGGCCGCCCUGCUCUGAGACUUGGCCACUCUUGUCCUGGCCAAGUGUUCUGCUUGCAUUUGCUUGGCUCUGGUACCAAAUAGUUGGGAUUCUUGAUGAAAUCCC: 1.61
ACAUUGCUAAAAGGACAUUUUGUGUAGGGUCAAGUUAUUUUUAUAUGAGUUAAUGUGAAGUUGUAAAUGGGAAUCUAUAGCAAUGAUGUCUGUAUAAAUCUGUCUUAUCU: 0.595
UCUGAUGAAUGAUUAUGGUCUAUACAUAAAAAAGUAAGACUAAGUAUUGCUGAAUUUGCAGUUAUGUUGUCGUGUAUAAGAGCUACUUCCAAGUGUGGUUACAAAUGAAC: 1.25
CACCGGCAUUUCCUUCUUCCACCAGCUUUAAUGGAACUUUUUUUGGCACUGCUUUGCAUUGGAGUCAGUUGUAGUCCACAUAGCUGGCUGCAGAGAAAUCAGUCUUACCC: 0.453
UUGAUUAAAAAAAAUAUAUCUACAUAGUCUUAAUUUGUAAAAAAUAAAGAAAAUUCCUUAACCUUUGCUGGUGUCUCAGUGUUAAAUCAGGGGCAUGCUGGGUUAGGGUU: 1.16
UUAGGGCAGAAGCCAGCUGCAGAAGCCACUUUGAUGUUACCCAAGCCACAGCGCUAGAUAAGCCUCACAGUUGUCCAGGGGAAGGGUUUAGGAAUUGGGUCUUUUGUCCA: 0.541

Set 3
Target: Histone acetyltransferase KAT6A, both winged helices, GST fusion (KAT6A, Homo sapiens, UniProt Q92794, residues 1-181)
Technique: protein binding microarray
Molecule type: double-stranded DNA, one strand shown
Sample: in vitro
Concentration: not given
Setting: 8-mer, flanks averaged, mean of 2 arrays, mostly near background
Relative to: not given
Reading: higher = stronger binding
Quantity: E-score
Target sequence (chain): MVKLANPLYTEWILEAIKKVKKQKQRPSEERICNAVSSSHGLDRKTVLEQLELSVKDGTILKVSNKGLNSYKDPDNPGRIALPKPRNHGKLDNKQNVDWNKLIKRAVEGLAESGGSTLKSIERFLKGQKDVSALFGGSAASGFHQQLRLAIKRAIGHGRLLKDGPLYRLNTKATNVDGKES
ATGATCCC: -0.0763
CTTCGATC: -0.116
ACACGAGA: -0.0501
TCGGAGCA: 0.0474
AGCGTATA: 0.1
AGCGCCTG: 0.108
AAGCCCAT: -0.199
AGTGTGGC: -0.108
GCCCCCGC: 0.24
AGTCTGAA: -0.0632
CGTACCAA: 0.0291
ACAGTTCA: -0.14
TAGCCCCA: -0.15
GAATTCAC: -0.0199
CCGGGAAA: 0.18
CCTACCGC: 0.135
CGCGTGAA: 0.278

Set 4
Target: Interferon regulatory factor 7, full length, phosphomimetic (IRF7, Homo sapiens, UniProt Q92985, residues 1-503, S471D/S472D/S475D/S476D/S477D/S483D/S484D/S487D)
Sequence of UniProt Q92985 (whole entry, unmodified, looked up): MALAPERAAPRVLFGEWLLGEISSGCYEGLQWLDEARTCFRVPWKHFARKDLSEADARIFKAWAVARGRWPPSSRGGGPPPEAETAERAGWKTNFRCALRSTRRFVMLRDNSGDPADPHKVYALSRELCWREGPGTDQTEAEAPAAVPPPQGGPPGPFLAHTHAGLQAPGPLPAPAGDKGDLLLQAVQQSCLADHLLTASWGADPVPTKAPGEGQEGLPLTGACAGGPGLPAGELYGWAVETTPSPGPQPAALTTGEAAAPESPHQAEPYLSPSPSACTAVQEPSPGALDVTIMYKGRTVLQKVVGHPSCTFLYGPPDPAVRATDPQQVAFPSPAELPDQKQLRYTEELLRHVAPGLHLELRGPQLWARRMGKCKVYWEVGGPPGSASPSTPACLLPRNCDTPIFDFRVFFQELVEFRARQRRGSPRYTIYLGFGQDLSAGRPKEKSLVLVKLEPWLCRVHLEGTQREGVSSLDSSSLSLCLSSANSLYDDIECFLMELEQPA
Technique: protein-binding microarray
Molecule type: double-stranded DNA, one strand shown
Sample: in vitro
Concentration: 2200 nM top
Setting: 60-bp whole probe
With: salmon DNA 0.4 mg/ml
Relative to: random background probes
Reading: higher = stronger binding
Quantity: fitted relative affinity
All sequences stand within: GCCTAGCAC … GTCTTGATTCGCTTGACGCTGCTG
GCACTTTGGGAGGCCGAGGCGTGCTAG: 0.458 z-score
CTCTTGATCCCGAACTGGCCGTGCTAG: 0.355 z-score
GACGATTACAGTCTCGAGACGTGCTAG: 0.369 z-score
TCATATATCTGTGTTATACTGTGCTAG: 1.37 z-score
GACGATATAGGGTATCGAGACGTGCTA: -0.199 z-score
AGGATCCTGGGAGGGAGAGCGTGCTAG: -0.131 z-score
TTAGATCTCAGTATCGTTTAGTGCTAG: 0.594 z-score
TTAGGTTTCGACAATGGGTTAGTGCTA: 1.44 z-score
GACGGATTCGGTCTCGGGACGTGCTAG: 1.2 z-score
GACGATTTCAGTTCCGTGACGTGCTAG: 2.1 z-score
TTAGGTATCAACACTGGGTTAGTGCTA: -0.104 z-score
GACGGTCTCCTTACCCTGACGTGCTAG: 0.642 z-score
TTAGATTTCGGTCTCGATTAGTGCTAG: 3.23 z-score
TCATATCTGTGTTATTAAACTGTGCTA: 1.16 z-score
CATTCTCTGTTTATGTCTGGGTGCTAG: 2.86 z-score
GACGGTATCAGGTTTCGGGACGTGCTA: 2.13 z-score
TCAACTTTGGAGATGACACTGTGCTAG: 0.26 z-score
GACGGTCTCGGAATGGGGACGTGCTAG: -0.0576 z-score
TTAGATATCGGGTATCGAGTAGTGCTA: 0.0181 z-score
TTAGGACTGGGGTTTAGGTTAGTGCTA: -0.271 z-score
TTAGGACTGGGTTTAGGTTAGTGCTAG: -0.2 z-score
GACGGTATCCTTTTCCTGAAGTGCTAG: 1.16 z-score
TTAGCACTGGACACTGGGTTAGTGCTA: -0.655 z-score
TTCTTTATGCACTCTTTACATGTGCTA: 1.25 z-score
TTAGGACTGGGACTGGGTTGGTGCTAG: -1.1 z-score
